Results from different studies.
Protocols differ between the studies behind these lines.
Organism: Enterococcus faecium

For `CC(C)C[C@H](NC(=O)[C@H](CC(N)=O)NC(=O)[C@H](CCCNC(=N)N)NC(=O)[C@@H](CC(C)C)NC(=O)[C@H](Cc1ccccc1)NC(=O)[C@H](CC(=O)O)NC(=O)[C@H](CCCCN)NC(=O)[C@@H](CC(C)C)NC(=O)[C@H](CCCNC(=N)N)NC(=O)[C@H](CCC(N)=O)NC(=O)[C@@H](NC(=O)[C@@H](CC(C)C)NC(=O)[C@H](CCCNC(=N)N)NC(=O)[C@H](CCCCN)NC(=O)[C@H](Cc1ccccc1)NC(=O)CN)C(C)C)C(=O)N[C@H](C(N)=O)C(C)C`, the MIC was over 100 µM (broth microdilution; ATCC 51559).
With `CCN(CC)CCCN1/C(=C/c2cc(C)[n+](C)c3ccccc23)Sc2ccccc21` the MIC was 16 µg/mL (microbial growth, broth dilution; ATCC49624).
`CNC(CC(C)C)C(=O)NC1C(=O)NC(CC(N)=O)C(=O)NC2C(=O)NC3C(=O)NC(C(=O)NC(C(=O)NC(CCCNC(=N)N)C(=O)OC)c4cc(O)cc(O)c4-c4cc3ccc4O)C(O)c3ccc(c(Cl)c3)Oc3cc2cc(c3OC2OC(CO)C(O)C(O)C2OC2CC(C)(N)C(O)C(C)O2)Oc2ccc(cc2Cl)C1O` (centres unmarked) gave an MIC of 8 µg/mL (broth microdilution; ATCC BAA-2317 VanA).
With `CC[P+](CC)(CC)[Au-][S][C@@H]1O[C@H](CO)[C@@H](O)[C@H](O)[C@H]1O` the MIC was 0.1 µM (ATCC 700221).
For `C=C(NC(=O)C(=C)NC(=O)c1csc(C2=NC3c4csc(n4)C4NC(=O)c5csc(n5)C(C(C)(O)C(C)O)NC(=O)C5CSC(=N5)C(=CC)NC(=O)C(C(C)O)NC(=O)c5csc(n5)C3(CC2)NC(=O)C(C)NC(=O)C(=C)NC(=O)C(=CC)NC(=O)C(C(C)CC)NC2C=Cc3c(C(C)O)cc(nc3C2O)C(=O)OC4C)n1)C(N)=O` (centres unmarked), the MIC was 0.11 µg/mL (broth microdilution; ATCC 12952 VRE; 18 h, 37 °C).
For `CN(C)c1cc(CNC(=O)OCC(C)(C)C)c(O)c2c1C[C@H]1C[C@H]3[C@H](N(C)C)C(O)=C(C(N)=O)C(=O)[C@@]3(O)C(O)=C1C2=O`, the MIC was 4 µg/mL (494, Tet M and Tet L).
The MIC of `Cc1ccc2ccc3ccc(C)nc3c2n1.Cc1ccc2ccc3ccc(C)nc3c2n1.O.[Cl-].[Cl-].[Cl-].[Yb+3]` is reported as 125 µg/mL.
With `CNC(CC(C)C)C(=O)NC1C(=O)NC(CC(N)=O)C(=O)NC2C(=O)NC3C(=O)NC(C(=O)NC(C(=O)NCCCNC(=N)N)c4cc(O)cc(O)c4-c4cc3ccc4O)C(O)c3ccc(c(Cl)c3)Oc3cc2cc(c3OC2OC(CO)C(O)C(O)C2OC2CC(C)(NCc3ccc(-c4ccc(Cl)cc4)cc3)C(O)C(C)O2)Oc2ccc(cc2Cl)C1O` (centres unmarked) the MIC was 0.3 µg/mL (ATCC BAA-2317 VanA; −LTA).
`CN(C)c1cc(CNCc2ccncc2)c(O)c2c1C[C@H]1C[C@H]3[C@H](N(C)C)C(O)=C(C(N)=O)C(=O)[C@@]3(O)C(O)=C1C2=O` has an MIC of 4 µg/mL (494, Tet M and Tet L).
With `CNC(CC(C)C)C(=O)NC1C(=O)NC(CC(N)=O)C(=O)NC2C(=O)NC3C(=O)NC(C(=O)NC(C(=O)NC(CCCNC(N)=O)C(=O)OC)c4cc(O)cc(O)c4-c4cc3ccc4O)C(O)c3ccc(c(Cl)c3)Oc3cc2cc(c3OC2OC(CO)C(O)C(O)C2OC2CC(C)(N)C(O)C(C)O2)Oc2ccc(cc2Cl)C1O` (centres unmarked) the MIC was 31 µg/mL (broth microdilution; ATCC BAA-2317 VanA).
For `COCCNCc1cc(N(C)C)c2c(c1O)C(=O)C1=C(O)[C@]3(O)C(=O)C(C(N)=O)=C(O)[C@@H](N(C)C)[C@@H]3C[C@@H]1C2`, the MIC was 1 µg/mL (494, Tet M and Tet L).
